Measurements of several laboratories.
Protocols differ between the studies behind these lines. Values joined by “and” are separate records of one study, mostly repeats; a detail may differ.
Sequence of UniProt O60674 (whole entry, looked up): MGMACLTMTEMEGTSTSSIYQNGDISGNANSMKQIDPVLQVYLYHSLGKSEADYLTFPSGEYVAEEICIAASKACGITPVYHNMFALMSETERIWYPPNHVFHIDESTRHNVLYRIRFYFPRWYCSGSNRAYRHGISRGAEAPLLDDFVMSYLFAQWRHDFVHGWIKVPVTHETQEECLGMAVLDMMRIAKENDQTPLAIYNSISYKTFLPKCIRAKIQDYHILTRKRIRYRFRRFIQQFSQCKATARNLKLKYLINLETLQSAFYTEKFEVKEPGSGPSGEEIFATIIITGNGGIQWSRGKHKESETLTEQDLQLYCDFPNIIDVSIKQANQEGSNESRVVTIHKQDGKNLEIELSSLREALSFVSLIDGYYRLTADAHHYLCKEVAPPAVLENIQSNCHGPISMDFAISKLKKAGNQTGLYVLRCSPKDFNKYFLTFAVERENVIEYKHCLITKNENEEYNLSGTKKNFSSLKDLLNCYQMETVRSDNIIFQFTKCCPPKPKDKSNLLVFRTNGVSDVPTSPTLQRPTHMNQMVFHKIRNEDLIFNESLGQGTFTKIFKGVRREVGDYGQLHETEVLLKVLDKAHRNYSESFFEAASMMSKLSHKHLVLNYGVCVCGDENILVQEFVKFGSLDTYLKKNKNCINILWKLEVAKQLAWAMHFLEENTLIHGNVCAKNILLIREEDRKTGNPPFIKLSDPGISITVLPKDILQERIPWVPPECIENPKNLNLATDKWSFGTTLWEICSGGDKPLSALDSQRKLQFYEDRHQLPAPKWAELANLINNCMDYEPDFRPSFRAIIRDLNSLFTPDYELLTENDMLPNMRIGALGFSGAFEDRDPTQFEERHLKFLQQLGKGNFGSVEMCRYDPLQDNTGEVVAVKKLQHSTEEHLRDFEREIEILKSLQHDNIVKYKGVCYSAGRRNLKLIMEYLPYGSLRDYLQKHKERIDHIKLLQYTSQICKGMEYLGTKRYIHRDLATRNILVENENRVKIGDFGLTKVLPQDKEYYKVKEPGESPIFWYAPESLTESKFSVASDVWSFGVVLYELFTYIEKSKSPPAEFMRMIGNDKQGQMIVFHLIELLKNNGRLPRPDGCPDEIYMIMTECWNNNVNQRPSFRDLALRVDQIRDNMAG

| Compound | target or system | test | test system | conditions | how to read | measurement | result |
| --- | --- | --- | --- | --- | --- | --- | --- |
| C[C@H]1CN(c2n[nH]c3nc(N[C@H]4CC[C@H](NS(=O)(=O)CCC(F)(F)F)CC4)ncc23)CCO1 | JAK2 (Homo sapiens, UniProt O60674) | inhibitor, Kinobeads competition profiling | – | 0.032 µM | baseline: vehicle | relative abundance | 0.98 |
| Cc1ccc2c(CNCC3(N4CCCC4)COC3)c[nH]c2c1 | HEK | – | – | 30 µM, 48 h, 10% FBS | baseline: DMSO | viability | 40.4% |
| Cn1cc2cc(C(F)(F)c3nnc4ccc(-c5cnn(C6CC6)c5)nn34)c(F)cc2n1 | MKN-45 | CCK-8 | – | 0.2 µM, 72 h | baseline: untreated | viability | 5.47% and 5.55% and 6.33% |
| CC(C)C[C@@H](NC(=O)[C@H](N)CCCCN)C(=O)N[C@H](CC(C)C)C(=O)N[C@H](Cc1ccccc1)C(=O)N[C@H](Cc1ccccc1)C(N)=O | NGF-differentiated PC-12 neurons | – | – | 40 µM, 24 h | baseline: untreated | viability | 99.6% |
| O=[N+]([O-])c1ccc(-c2nn(-c3ccccc3)c3sc(NC(c4ccccc4O)P(=O)(Oc4ccccc4)Oc4ccccc4)nc23)cc1 (stereo not drawn) | BNL mouse liver cells | SRB | – | 0.1 µM, 10% fetal bovine serum | – | viability | 102% |
| CC(C)C[C@@H](NC(=O)[C@H](N)CCCCN)C(=O)N[C@H](CC(C)C)C(=O)N[C@H](Cc1ccccc1)C(=O)N[C@H](Cc1ccccc1)C(=O)N[C@H](C)C(=O)N[C@H](CCC(=O)O)C(N)=O | NGF-differentiated PC-12 neurons | – | – | 160 µM, 24 h | baseline: untreated | viability | 98% |
| COc1ccc(Nc2nn3c(-c4ccccc4)ccnc3c2C(=O)Nc2ccccc2)cc1 | WI-38 | MTT | serum-free medium | 62.50 µg/mL, 48 h | – | viability | 76.7% |
| CC(C)C[C@@H](NC(=O)[C@H](N)CCCCN)C(=O)N1CCC[C@@H]1C(=O)N[C@H](Cc1ccccc1)C(=O)N[C@H](Cc1ccccc1)C(=O)N[C@H](C)C(N)=O | NGF-differentiated PC-12 neurons | – | – | 40 µM, 24 h | baseline: untreated | viability | 95.8% |
| Cc1cccc2c(CNCC3(N4CCCC4)COC3)c[nH]c12 | HEK | – | – | 30 µM, 48 h, 10% FBS | baseline: DMSO | viability | 0.437% |
| CC(C)(C)N1CCC(c2ccccc2)(c2ccccc2)CC1 | Vero-E6 | CellTiter-Glo ATP | – | concentration not given, 72 h, retest 8-point duplicates | baseline: DMSO 0%, hyamine -100%, more negative, more toxic | cytotoxicity efficacy | 0% |
| CC(C)C[C@H](NC(=O)[C@H](C)NC(=O)[C@@H](NC(=O)[C@H](CCCNC(=N)N)NC(=O)[C@H](CC(C)C)NC(=O)[C@H](Cc1c[nH]c2ccccc12)NC(=O)[C@@H]1CCCN1C(=O)[C@@H](N)CCCCN)C(C)C)C(=O)N[C@@H](CS)C(=O)N1CCC[C@H]1C(=O)NCC(=O)O | A549 | WST-1 | – | 32 µM, 24 h | – | viability | 91% and 85.1% and 96.1% |
| CN(C)c1ccc(C(Nc2nc3c(-c4ccc([N+](=O)[O-])cc4)nn(-c4ccccc4)c3s2)P(=O)(Oc2ccccc2)Oc2ccccc2)cc1 (stereo not drawn) | BNL mouse liver cells | SRB | – | 1 µM, 10% fetal bovine serum | – | viability | 92.8% |
| COc1ccc(Nc2nn3c(-c4ccccc4)ccnc3c2C(=O)Nc2ccc(Cl)cc2)cc1 | WI-38 | MTT | serum-free medium | 125.00 µg/mL, 48 h | – | viability | 81.8% |
| CC(C)C[C@@H](NC(=O)[C@H](N)CCCCN)C(=O)N1CCC[C@@H]1C(=O)N[C@H](Cc1ccccc1)C(=O)N[C@H](Cc1ccccc1)C(N)=O | NGF-differentiated PC-12 neurons | – | – | 80 µM, 24 h | baseline: untreated | viability | 100% |
| CC1CCCN(CCCNC(=O)c2cc(Sc3ccc(F)cc3)nc3ccccc23)C1 (stereo not drawn) | Vero-E6 | CellTiter-Glo ATP | – | concentration not given, 72 h, retest 8-point duplicates | baseline: DMSO 0%, hyamine -100%, more negative, more toxic | cytotoxicity efficacy | 0% |

Excerpt of the above:
| Compound | target or system | test | test system | conditions | how to read | measurement | result |
| --- | --- | --- | --- | --- | --- | --- | --- |
| CC1CCCN(CCCNC(=O)c2cc(Sc3ccc(F)cc3)nc3ccccc23)C1 (stereo not drawn) | Vero-E6 | CellTiter-Glo ATP | – | concentration not given, 72 h, retest 8-point duplicates | baseline: DMSO 0%, hyamine -100%, more negative, more toxic | cytotoxicity efficacy | 0% |
| Cn1cc2cc(C(F)(F)c3nnc4ccc(-c5cnn(C6CC6)c5)nn34)c(F)cc2n1 | MKN-45 | CCK-8 | – | 0.2 µM, 72 h | baseline: untreated | viability | 5.47% and 5.55% and 6.33% |
| CC(C)C[C@@H](NC(=O)[C@H](N)CCCCN)C(=O)N[C@H](CC(C)C)C(=O)N[C@H](Cc1ccccc1)C(=O)N[C@H](Cc1ccccc1)C(N)=O | NGF-differentiated PC-12 neurons | – | – | 40 µM, 24 h | baseline: untreated | viability | 99.6% |
